Experimental data collected from several papers.
Several values in a cell are separate wells, animals, samples, runs or records.
Target: Cytochrome P450 1A2 (CYP1A2, Homo sapiens, UniProt P05177)
Sequence of UniProt P05177 (whole entry, looked up): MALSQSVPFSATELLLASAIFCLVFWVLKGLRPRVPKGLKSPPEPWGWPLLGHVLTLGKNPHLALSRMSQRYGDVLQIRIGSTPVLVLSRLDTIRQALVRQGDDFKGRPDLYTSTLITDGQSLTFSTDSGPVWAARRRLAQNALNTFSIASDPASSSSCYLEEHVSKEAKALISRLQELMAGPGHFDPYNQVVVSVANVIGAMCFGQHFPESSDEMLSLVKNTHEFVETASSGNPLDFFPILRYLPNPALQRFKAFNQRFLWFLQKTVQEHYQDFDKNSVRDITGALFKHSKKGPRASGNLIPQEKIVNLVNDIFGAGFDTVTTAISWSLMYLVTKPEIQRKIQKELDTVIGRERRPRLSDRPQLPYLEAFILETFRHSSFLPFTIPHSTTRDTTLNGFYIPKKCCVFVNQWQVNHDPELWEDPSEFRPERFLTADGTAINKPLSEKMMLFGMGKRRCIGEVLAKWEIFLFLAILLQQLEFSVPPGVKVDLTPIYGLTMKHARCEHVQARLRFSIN

| SMILES | test | test system | setting | scale | endpoint | value |
| --- | --- | --- | --- | --- | --- | --- |
| C=CC(=O)Nc1cc(Nc2nccc(-c3cn(C)c4ccccc34)n2)c(OCC(F)(F)F)nc1N(C)CCN(C)C | enzyme activity, inhibitor | human, liver microsomes | 0.1 µM |  | activity vs control | 70.4% |
| COc1cc(OC)c(F)c(/C=C/c2cnc3ccn(S(=O)(=O)c4cn(CCF)cn4)c3n2)c1F | enzyme activity, inhibitor | human, liver microsomes | 10 µM, 20 min, pH 7.4 |  | inhibition | 28% |
| NS(=O)(=O)NCC(F)(F)c1ccccc1F | enzyme activity, inhibitor |  |  |  | IC50 | > 74 µM and > 120 µM |
| CC(C)Cn1c(SCC(=O)N2CCc3ccccc3C2)nc2cc(Cl)ccc2c1=O | enzyme activity, inhibitor, fluorescence | insect cell microsomes | 10 µM |  | inhibition | 65% |
| Cc1ccc(OCC(=O)N(Cc2cccs2)c2ccn[nH]2)cc1 | enzyme activity, inhibitor, mass spectrometry | human, liver microsomes | 10 µM |  | inhibition | 41% |
| CC(C)(C)[C@H](NC(=O)[C@H](CCONC(=N)N)NC(=O)Cc1ccc(CNC(=N)N)cc1)C(=O)N[C@@H](CCONC(=N)N)C(=O)NCc1ccc(C(=N)N)cc1 |  | primary human hepatocytes | up to 100 µM, 2 h |  | enzyme activity | no effect |
| CCC1CC2C(C)=CC3C(=O)CCCC3C=CC(C)=CC2C(=O)O1 (stereo not drawn) |  | human liver microsomes | 10 µM, 10 min, pH 7.4, together with: phenacetin 20 µM | reference: untreated | remaining activity | 116% |
| O=C(CS(=O)(=O)Cc1ccco1)C12CC3CC(CC(C3)C1)C2 | enzyme activity, inhibitor |  | 10 µM |  | inhibition | 0% |
| CC1CCC2(OC1)OC1CC3C4CC=C5CC(OC6OC(CO)C(OC7OC(CO)C(O)C7O)C(O)C6OC6OC(C)C(O)C(O)C6O)CCC5(C)C4CCC3(C)C1(O)C2C (stereo not drawn) | phenacetin O-deethylation | pooled human liver microsomes | 100 µM, 1 h, pH 7.4 | reference: vehicle | remaining activity | 24.5% |

A few entries again:
| SMILES | test | test system | setting | scale | endpoint | value |
| --- | --- | --- | --- | --- | --- | --- |
| COc1cc(OC)c(F)c(/C=C/c2cnc3ccn(S(=O)(=O)c4cn(CCF)cn4)c3n2)c1F | enzyme activity, inhibitor | human, liver microsomes | 10 µM, 20 min, pH 7.4 |  | inhibition | 28% |
